# Values quoted from earlier work, collected from citations in different studies.
# Values joined by “and” are separate records of one study, mostly repeats; a detail may differ.
SMILES,organism,test,test system,conditions,scale,quantity,value
CCCCCCCCCC(=O)CC(=O)Nc1ccccc1,Pseudomonas aeruginosa,,PAO1,50 µM,,pyocyanin inhibition,70%
O=C(c1cncc(-c2ccc3ncnc(Nc4ccc(OCc5cccc(F)c5)c(Cl)c4)c3c2)c1)N1CCOCC1,Trypanosoma brucei,parasite growth,,,,EC50,0.34 µM
NS(=O)(=O)c1nnc(NC(=O)CCc2ccccc2)s1,Enterococcus faecalis,,NR-31972,,,MIC,0.384 µM
CCCCCCCCCC(=O)CC(=O)Nc1cccc(OC)c1,Pseudomonas aeruginosa,pyocyanin production,PAO1,200 µM,,inhibition,93%
O=S(=O)(c1ccc(-c2ccc3ncnc(Nc4ccc(OCc5cccc(F)c5)cc4)c3c2)cc1)N1CCOCC1,Trypanosoma brucei,parasite growth,,,,EC50,0.65 µM
CCOC(=O)[C@H]1c2ccc3ccccc3c2O[C@@H]2c3ccsc3CCN21,Staphylococcus aureus,efflux pump inhibition,ATCC 25923,100 µM,relative to: untreated cells,relative fluorescence index,1.82
Clc1cc(Nc2ncnc3ccc(-c4cccc(N5CCOCC5)c4)cc23)ccc1OCc1ccccc1,Trypanosoma brucei,parasite growth,,,,EC50,0.23 µM
CN1CCOCC1CC(O)Cn1c2ccc(Cl)cc2c2cc(Cl)ccc21 (stereo not shown),Plasmodium,parasite growth,,,,IC50,1.23 µM
CCOC(=O)[C@H]1c2ccc3ccccc3c2O[C@@H]2c3ccccc3CCN21,Staphylococcus aureus,efflux pump inhibition,ATCC 25923,50 µM,relative to: untreated cells,relative fluorescence index,0.61
[2H]C([2H])([2H])C1(C([2H])([2H])[2H])NC(=O)N(c2ccc(F)c(C(C)(F)F)c2)C1=O,Schistosoma mansoni,,"juvenile, infected mice","oral, 50 mg/kg single dose",,worm burden reduction,100%
c1ccc2c(C3NCCc4sccc43)c[nH]c2c1 (stereo not shown),Escherichia coli,efflux pump inhibition,AG100 AcrAB-TolC expressing,50 µM,relative to: untreated cells,relative fluorescence index,0.56
NS(=O)(=O)c1nnc(NC(=O)C2CCCCC2)s1,Enterococcus faecium,,HM-965,,,MIC,0.861 µM
c1ccc2c(c1)CCNC2c1c[nH]c2cnccc12 (stereo not shown),Staphylococcus aureus,efflux pump inhibition,ATCC 25923,50 µM,relative to: untreated cells,relative fluorescence index,-0.09
c1ccc(Nc2ncnc3ccc(-c4cccc(N5CCOCC5)c4)cc23)cc1,Trypanosoma brucei brucei,cell growth,Lister 427,,,GI50,11 µM
CN1CCN(C(=O)c2cccc(CC(O)Cn3c4ccccc4c4ccccc43)c2)CC1 (stereo not shown),Plasmodium,parasite growth,,,,IC50,14.9 µM
c1ccc2c(c1)CCNC2c1c[nH]c2ccncc12 (stereo not shown),Escherichia coli,efflux pump inhibition,AG100 AcrAB-TolC expressing,50 µM,relative to: untreated cells,relative fluorescence index,0.04
Cc1cccc(-c2nc(C3CCN(C(=O)C4CC(=O)N(c5ccc(C)c(C)c5)C4)CC3)no2)c1 (stereo not shown),Plasmodium,parasite growth,,,,IC50,12.1 µM
O=S(=O)(c1cccc(-c2ccc3ncnc(Nc4ccc(OCc5cccc(F)c5)c(Cl)c4)c3c2)c1)N1CCCCC1,Trypanosoma brucei,parasite growth,,,,EC50,0.46 µM
CCOC(=O)[C@H]1c2c(ccc3ccccc23)O[C@@H]2c3[nH]c4ccccc4c3CCN21,Staphylococcus aureus,efflux pump inhibition,ATCC 25923,50 µM,relative to: untreated cells,relative fluorescence index,0.01
CC(C)C[C@@H](NC(=O)[C@H](C)NC(=O)CNC(=O)[C@@H](NC=O)C(C)C)C(=O)N[C@@H](C)C(=O)N[C@@H](C(=O)N[C@H](C(=O)N[C@@H](C(=O)N[C@@H](Cc1c[nH]c2ccccc12)C(=O)N[C@H](CC(C)C)C(=O)N[C@@H](Cc1c[nH]c2ccccc12)C(=O)N[C@H](CC(C)C)C(=O)N[C@@H](Cc1c[nH]c2ccccc12)C(=O)N[C@H](CC(C)C)C(=O)N[C@@H](Cc1c[nH]c2ccccc12)C(=O)NCCO)C(C)C)C(C)C)C(C)C,Streptococcus pyogenes,,SSI-9,,,MIC,0.033 µM
CCN(CC)CC#CCNc1ccnc2cc(Cl)ccc12,Plasmodium falciparum,"parasite growth, SYBR Green I",3D7,,,IC50,0.0488 µM and 0.0432 µM
CCCCCCCCCCCCn1nnc(CC(=O)O)n1,Pseudomonas aeruginosa,pyocyanin production,PAO1,"10 µM, 36",,inhibition,40%
O=S(=O)(c1ccc(-c2ccc3ncnc(Nc4ccc(OCc5cccc(F)c5)c(Cl)c4)c3c2)cc1)N1CCNCC1,Trypanosoma brucei,parasite growth,,,,EC50,0.28 µM
CNC(C)CCCC(O)Cn1c2ccc(Cl)cc2c2cc(Cl)ccc21 (stereo not shown),Plasmodium,parasite growth,,,,IC50,1.56 µM
CC(C)C[C@@H](NC(=O)[C@H](C)NC(=O)CNC(=O)[C@@H](NC=O)C(C)C)C(=O)N[C@@H](C)C(=O)N[C@@H](C(=O)N[C@H](C(=O)N[C@@H](C(=O)N[C@@H](Cc1c[nH]c2ccccc12)C(=O)N[C@H](CC(C)C)C(=O)N[C@@H](Cc1c[nH]c2ccccc12)C(=O)N[C@H](CC(C)C)C(=O)N[C@@H](Cc1c[nH]c2ccccc12)C(=O)N[C@@H](C(=O)N[C@@H](Cc1c[nH]c2ccccc12)C(=O)NCCO)C(C)C)[C@H](C)O)C(C)C)C(C)C,Streptococcus pneumoniae,,NBRC 102642,,,MIC,0.0083 µM
c1ccc(-c2nnn3c2nc(N2CCN(Cc4ccc5c(c4)OCO5)CC2)c2ccccc23)cc1,Plasmodium,parasite growth,,,,IC50,17 µM
NS(=O)(=O)c1nnc(NC(=O)CN2CCOCC2)s1,Enterococcus faecalis,,NR-31972,,,MIC,13 µM
O=C(Cc1ccc(Br)cc1)N[C@H]1CCOC1=O,Pseudomonas aeruginosa,,PAO1,50 µM,,pyocyanin inhibition,10 to 30%
c1ccc2c3c([nH]c2c1)C(c1c[nH]c2ncccc12)NCC3 (stereo not shown),Escherichia coli,efflux pump inhibition,AG100 AcrAB-TolC expressing,50 µM,relative to: untreated cells,relative fluorescence index,0.01
COc1cccc(COc2ccc(Nc3ncnc4ccc(-c5ccc(S(=O)(=O)N6CCOCC6)cc5)cc34)cc2Cl)c1,Trypanosoma brucei,parasite growth,,,,EC50,1.4 µM
CC1CCCC(CCC(O)Cn2c3ccccc3c3ccccc32)N1C (stereo not shown),Plasmodium,parasite growth,,,,IC50,4.97 µM
CN(C)c1cccc(-c2ccc3ncnc(Nc4ccc(OCc5cccc(F)c5)c(Cl)c4)c3c2)c1,Trypanosoma brucei,parasite growth,,,,EC50,2.2 µM
c1ccc2c(C3NCCc4c3[nH]c3ccccc43)c[nH]c2c1 (stereo not shown),Staphylococcus aureus,,reference strains,,,MIC,50 µM
O=C(CCCOc1cccc(Br)c1)N[C@H]1CCSC1=O,Pseudomonas aeruginosa,Caenorhabditis elegans fast killing,PA14,50 µM,,reduction,50%
CN1CCOCC1CC(O)Cn1c2ccc(Br)cc2c2cc(Br)ccc21 (stereo not shown),Plasmodium,parasite growth,,,,IC50,2.08 µM
O=S(=O)(c1ccc(-c2ccc3ncnc(Nc4ccc(OCc5ccc(C(F)(F)F)c(F)c5)c(Cl)c4)c3c2)cc1)N1CCOCC1,Trypanosoma brucei,parasite growth,,,,EC50,0.54 µM
O=C(CCCCCCCCCN=C=S)CC(=O)N[C@H]1CCOC1=O,Pseudomonas aeruginosa,biofilm formation,PAO1,50 µM,,inhibition,45%
